Published values from different studies.
Protocols differ between the studies behind these lines. ± gives the spread as reported.

CCCC[C@H](NC(=O)CNC(=O)CNC(=O)CN1CCN(CC(=O)O)CCN(CC(=O)O)CCN(CC(=O)O)CC1)C(=O)N[C@H]1CC(=O)NCCCC[C@@H](C(N)=O)NC(=O)[C@H](Cc2c[nH]c3ccccc23)NC(=O)[C@H](CCCNC(=N)N)NC(=O)[C@@H](Cc2ccccc2)NC(=O)[C@H](Cc2c[nH]cn2)NC1=O [copper-64 labelled] — tissue uptake (C57 mouse B16/F1 melanoma, pancreas; 24 h): 1.4 ± 0.28 %ID/g
CCCC[C@@H]1NC(=O)[C@@H](NC(=O)[C@H](CCC(=O)O)NC(=O)CNC(=O)CN2CCN(CC(=O)O)CCN(CC(=O)O)CCN(CC(=O)O)CC2)CCCCNC(=O)C[C@@H](C(N)=O)NC(=O)[C@H](C(C)C)NC(=O)[C@@H]2CCCN2C(=O)[C@H](CCCNC(=N)N)NC(=O)CNC(=O)[C@H](Cc2c[nH]c3ccccc23)NC(=O)[C@H](CCCNC(=N)N)NC(=O)[C@@H](Cc2ccccc2)NC(=O)[C@H](Cc2c[nH]cn2)NC(=O)[C@H](CCC(=O)O)NC1=O [gallium-67 labelled] — tissue uptake (C57 mice, B16/F1 flank melanoma, blood; intravenous, 2 h, with: blocking peptide 10 µg): 0.24 ± 0.02 %ID/g
CC(C)[C@H](NC(=O)[C@@H]1CCCN1C(=O)[C@H](CCCNC(=N)N)NC(=O)[C@H](CS)NC(=O)[C@H](Cc1c[nH]c2ccccc12)NC(=O)[C@H](CCCNC(=N)N)NC(=O)[C@@H](Cc1ccccc1)NC(=O)[C@H](Cc1c[nH]cn1)NC(=O)[C@H](CCC(=O)O)NC(=O)[C@H](CS)NC(=O)[C@H](CS)NC(=O)[C@@H]1CC(=O)N[C@@H](CCCNC(=N)N)C(=O)NCC(=O)N[C@@H](CC(=O)O)C(=O)N[C@H](Cc2ccc(O)cc2)C(=O)N1)C(N)=O [technetium-99m labelled] — tissue uptake (C57 mouse, female, B16/F1 melanoma, muscle; intravenous, 0.037 MBq, 2 h): 0.2 ± 0.11 %ID/g
O=C([O-])CN1CCN(CC(=O)[O-])CCN(CC(=O)[O-])CCN(CC(=O)[O-])CC1.[64Cu+2] — tissue uptake (healthy athymic nude mice, large intestine; intravenous, 4 h): 2.19 %ID/g
OCc1cn(Cc2ccc(-c3noc(-c4ccc(OCC[18F])c(C(F)(F)F)c4)n3)cc2)nn1 — tissue uptake (female Lewis rat, spleen; intravenous, 120 min): 1.14 ± 0.1 %ID/g
CN1C(=O)[C@@H](Cc2ccc(O)c(I)c2)NC(=O)CNC(=O)[C@H](Cc2ccc3ccccc3c2)NC(=O)[C@H](CCCNC(=N)N)NC(=O)[C@H]1CCCNC(=O)c1ccc(CNC(=O)CN2CCN(CC(=O)O)CCN(CC(=O)O)CCN(CC(=O)O)CC2)cc1 [lutetium-177 labelled] — tissue uptake (item: 177Lu radioactivity; female CB-17 SCID mice, Daudi xenograft, spleen; intravenous, 0.16 nmol per mouse, 1 h): 1.8 ± 0.3 %ID/g
O=C(O)C1CN(Cc2ccc(-c3noc(-c4ccc(OCC[18F])c(C(F)(F)F)c4)n3)cc2)C1 — tissue uptake (male Sprague-Dawley rat, muscle; intravenous, 5 min): 0.121 ± 0.013 %ID/g
CC(C)[C@H](NC(=O)[C@@H]1CCCN1C(=O)[C@H](CCCNC(=N)N)NC(=O)[C@H](CS)NC(=O)[C@H](Cc1c[nH]c2ccccc12)NC(=O)[C@H](CCCNC(=N)N)NC(=O)[C@@H](Cc1ccccc1)NC(=O)[C@H](Cc1c[nH]cn1)NC(=O)[C@H](CCC(=O)O)NC(=O)[C@H](CS)NC(=O)[C@H](CS)NC(=O)CNC(=O)[C@@H]1CC(=O)N[C@@H](CCCNC(=N)N)C(=O)NCC(=O)N[C@@H](CC(=O)O)C(=O)N[C@H](Cc2ccc(O)cc2)C(=O)N1)C(N)=O [technetium-99m labelled] — tissue uptake (C57 mouse, female, B16/F1 melanoma, stomach; intravenous, 0.037 MBq, 0.5 h): 3.87 ± 1 %ID/g
CN(C)c1ccc(-c2nc3ccc(OCCCCCN4CCN5CCN(CC4)CC(=O)[O][Al]([18F])[O]C(=O)C5)cc3s2)cc1 — tissue uptake (ICR mouse, brain; intravenous, 10 min): 0.16 ± 0.05 %ID/g
C[C@H](CN(C)Cc1ccccc1)NC(=O)c1ccc(-c2noc(C(F)(F)[18F])n2)cc1 — tissue uptake (PET imaging; female Sprague-Dawley rats, cerebellum; intravenous, 30 min): 1.08 ± 0.25 SUV
NC12CNCCNCC(NCc3ccc(CNC(=O)CCCC(=O)NCc4ccc(-c5nncnn5)cc4)cc3)(CNCCNC1)CNCCNC2.[64Cu+2] — tissue uptake (athymic nude mice, SW1222 xenograft, small intestine, with contents; 24 h p.i., huA33-TCO pretargeting, 24 h interval): 0.45 ± 0.07 %ID/g
CCCC[C@H](NC(=O)CNC(=O)CNC(=O)CN1CCN(CC(=O)O)CCN(CC(=O)O)CC1)C(=O)N[C@H]1CC(=O)NCCCC[C@@H](C(N)=O)NC(=O)[C@H](Cc2c[nH]c3ccccc23)NC(=O)[C@H](CCCNC(=N)N)NC(=O)[C@@H](Cc2ccccc2)NC(=O)[C@H](Cc2c[nH]cn2)NC1=O [copper-64 labelled] — tissue uptake (female C57 mouse, B16/F1 melanoma, tumor; intravenous, 0.037 MBq, 4 h): 12.7 ± 2.68 %ID/g
O=C([O-])CN1CCN(CC(=O)[O-])CCN(CC(=O)NCCc2ccc3c(c2)C2C=CCC2C(c2cc4c(cc2Br)OCO4)N3)CCN(CC(=O)[O-])CC1.[111In+3] (stereo not shown) — tissue uptake (mouse, Hec50 endometrial tumour, kidneys; 0.5 h post injection): 2.55 ± 0.3 %ID/g

Repeated from above:
OCc1cn(Cc2ccc(-c3noc(-c4ccc(OCC[18F])c(C(F)(F)F)c4)n3)cc2)nn1 — tissue uptake (female Lewis rat, spleen; intravenous, 120 min): 1.14 ± 0.1 %ID/g
CN1C(=O)[C@@H](Cc2ccc(O)c(I)c2)NC(=O)CNC(=O)[C@H](Cc2ccc3ccccc3c2)NC(=O)[C@H](CCCNC(=N)N)NC(=O)[C@H]1CCCNC(=O)c1ccc(CNC(=O)CN2CCN(CC(=O)O)CCN(CC(=O)O)CCN(CC(=O)O)CC2)cc1 [lutetium-177 labelled] — tissue uptake (item: 177Lu radioactivity; female CB-17 SCID mice, Daudi xenograft, spleen; intravenous, 0.16 nmol per mouse, 1 h): 1.8 ± 0.3 %ID/g
